{"data": "Values quoted from earlier work, collected from citations in different studies", "note": "Each line is one published result; not all experiments were run side by side. ± gives the spread as reported."}
{"Structure (SMILES)": "COc1ccc(Cn2cc3c(c2-c2cc(OC)c(OC)c(OC)c2)CCc2cnoc2-3)cc1OC", "target or system": "multidrug-resistant cells", "setting": "concentration not given, together with: vincristine", "measurement": "potentiation", "result": "60%"}
{"Structure (SMILES)": "CNCCCOc1cc(F)c(-c2c(Cl)nc3ncnn3c2N[C@@H](C)C(F)(F)F)c(F)c1", "target or system": "HEK293", "setting": "1 µM, 4 h, unit not given", "scale": "baseline: vehicle (DMSO)", "measurement": "total α-tubulin level", "result": "0.49 ± 0.05"}
{"Structure (SMILES)": "CS(=O)(=O)N(Cc1ccco1)CC(O)Cn1c2ccccc2c2ccccc21 (stereo not shown)", "target or system": "glioma stem cells", "test": "Per2 repression, measured: Per2", "measurement": "IC50?", "result": "< 10000 nM"}
{"Structure (SMILES)": "CCOC(=O)N1CCC(C)(c2cc(O)n3nc(C)c(-c4ccc(C(F)(F)F)cc4)c3n2)CC1", "target or system": "gastric cancer cells", "setting": "concentration not given", "measurement": "cell proliferation", "result": "decreased"}
{"Structure (SMILES)": "O=C1NCCN1CC(O)Cn1c2ccc(F)cc2c2cc(F)ccc21 (stereo not shown)", "target or system": "GSC", "test": "cell viability", "measurement": "EC50", "result": "8500 nM"}
{"Structure (SMILES)": "O=C(Nc1ccccc1-c1cccc(Cl)c1)c1nccnc1C(F)(F)F", "target or system": "Botrytis cinerea", "system": "cucumber", "measurement": "EC80", "result": "5 to 20 mg a.i./L"}
{"Structure (SMILES)": "C[C@@H](Nc1c(-c2c(F)cc(C#CCCN)cc2F)c(Cl)nc2ncnn12)C(C)(C)C", "target or system": "HEK293", "setting": "10 µM, 4 h, unit not given", "scale": "baseline: vehicle (DMSO)", "measurement": "acetylated α-tubulin level", "result": "3.66 ± 0.58"}
{"Structure (SMILES)": "Oc1cccc(-c2cccc(O)n2)n1.[Cl-].[Cl-].[Ru+2].c1cnc2c(c1)c1c(c3cccnc32)OCCO1.c1cnc2c(c1)c1c(c3cccnc32)OCCO1", "target or system": "MCF-10A", "scale": "baseline: dark IC50 over light IC50", "measurement": "phototoxicity index", "result": 2}
{"Structure (SMILES)": "CN1C(=O)[C@@H](Cc2ccc(O)cc2)NC(=O)CNC(=O)[C@H](Cc2ccc3ccccc3c2)NC(=O)[C@H](CCCNC(=N)N)NC(=O)[C@H]1CCCNC(=O)c1ccc(CNC(=O)CN2CCN(CC(=O)O)CCN(CC(=O)O)CCN(CC(=O)O)CC2)cc1 [gallium-68 labelled]", "test": "PET dosimetry", "system": "human patients, brain", "measurement": "absorbed dose coefficient", "result": "0.01 mGy/MBq"}
{"Structure (SMILES)": "C/C=C/CNC(=N)NCCCCCCCCN1CCCCCCCCNC(=N)NC1=O", "target or system": "Candida parapsilosis", "measurement": "MIC50", "result": "5 µg/mL"}
{"Structure (SMILES)": "Oc1cccc(-c2cccc(O)n2)n1.[Cl-].[Cl-].[Ru+2].c1cnc2c(c1)ccc1cccnc12.c1cnc2c(c1)ccc1cccnc12", "target or system": "MCF-10A", "scale": "baseline: dark IC50 over light IC50", "measurement": "phototoxicity index", "result": 9}
{"Structure (SMILES)": "CNCCCOc1cc(F)c(-c2c(Cl)nc3ncnn3c2NCC(F)(F)F)c(F)c1", "target or system": "HEK293", "setting": "10 µM, 4 h, unit not given", "scale": "baseline: vehicle (DMSO)", "measurement": "acetylated α-tubulin level", "result": "1.81 ± 0.38"}
{"Structure (SMILES)": "CN1CCN(c2cc(-c3ccccc3CO)c(N(C)C(=O)C(C)(C)c3cc(C(F)(F)F)cc(C(F)(F)F)c3)cn2)CC1", "system": "healthy volunteers, plasma", "setting": "oral, 450 mg, single dose, netupitant alone", "measurement": "Tmax", "result": "19.7 h"}
{"Structure (SMILES)": "CC[C@H](C)[C@@H]1NC(=O)[C@H](CC(=O)O)NC(=O)[C@H](CC(=O)O)NC(=O)CNC(=O)[C@@H]2CCCN2C(=O)[C@H](CC(=O)O)NC(=O)[C@H](Cc2ccc(O)cc2)NC(=O)[C@H]([C@@H](C)CC)NC(=O)[C@H](CCC(=O)O)NC(=O)[C@H](CCCCN)NC1=O", "target or system": "Caco-2 and Jurkat", "test": "cell adhesion", "setting": "180 µM", "scale": "baseline: control peptide", "measurement": "inhibition", "result": "~70%"}
{"Structure (SMILES)": "O=C1c2ccccc2-c2c1c1ccccc1c(=O)n2C[C@H](O)[C@@H](O)[C@@H](O)[C@H](O)CO", "target or system": "60 cancer cell lines", "test": "cell growth", "setting": "10 µM", "measurement": "mean growth", "result": "68%"}
{"Structure (SMILES)": "COCCOCCOCCOCCC(=O)NCc1cc(CNC(=O)CCOCCOCCOCCOC)cc(-c2cc3cc4nc(c(OC)c5[nH]c(cc6nc(cc2[nH]3)CC6(C)C)cc5-c2cc(CNC(=O)CCOCCOCCOCCOC)cc(CNC(=O)CCOCCOCCOCCOC)c2)CC4(C)C)c1", "system": "PBS", "setting": "room temperature", "measurement": "kf^−1", "result": "17 ns"}
{"Structure (SMILES)": "CCCCCCCCCCCCCCCCOC(=O)C1=C(C)NC(=O)NC1c1cccc(O)c1 (stereo not shown)", "target or system": "U-138 MG", "setting": "10 µM", "measurement": "viability reduction", "result": "~50%"}
{"Structure (SMILES)": "CN(C)CCCOc1cc(F)c(-c2c(Cl)nc3ncnn3c2NCC2(C)CC2)c(F)c1", "target or system": "HEK293", "setting": "1 µM, 4 h, unit not given", "scale": "baseline: vehicle (DMSO)", "measurement": "acetylated α-tubulin level", "result": "2.81 ± 0.35"}
{"Structure (SMILES)": "COc1cc2c(cc1C)NC(=O)/C2=C/c1c(Cl)[nH]c2cc(C)c(OC)cc12", "target or system": "NCI-60 panel", "setting": "mean over panel", "measurement": "GI50", "result": "2000 nM"}
{"Structure (SMILES)": "CCCCCCCCCCCCCCOc1c(O)cc(C(=O)O[C@@H]2Cc3c(O)cc(O)cc3O[C@@H]2c2cc(O)c(O)c(O)c2)cc1O", "target or system": "A-431", "test": "inhibitor, measured: EGFR", "setting": "concentration not given, together with: EGF", "measurement": "phosphorylation", "result": "inhibited"}
{"Structure (SMILES)": "CC1=CCC23OC2(C)CCC2C(CN(C)C)C(=O)OC2C13.Cl (stereo not shown)", "system": "CA-755 breast adenocarcinoma model", "setting": "ip and intratumoural, dose not given", "measurement": "tumour growth inhibition", "result": "86 to 90%"}
{"Structure (SMILES)": "CC1CC(C)(C)c2cccc(NC(=O)c3nccnc3C(F)(F)F)c21 (stereo not shown)", "target or system": "Puccinia triticina", "system": "wheat", "measurement": "EC80", "result": "< 1 mg a.i./L"}
{"Structure (SMILES)": "O=C1c2ccccc2-c2c1c1ccc([N+](=O)[O-])cc1c(=O)n2C[C@H](O)[C@@H](O)[C@H](O)[C@H](O)CO", "target or system": "60 cancer cell lines", "test": "cell growth", "setting": "10 µM", "measurement": "mean growth", "result": "58%"}
{"Structure (SMILES)": "CN(C)CCCOc1cc(F)c(-c2c(Cl)nc3ncnn3c2NCC(C)(C)C)c(F)c1", "target or system": "HEK293", "setting": "1 µM, 4 h, unit not given", "scale": "baseline: vehicle (DMSO)", "measurement": "total α-tubulin level", "result": "0.69 ± 0.03"}
{"Structure (SMILES)": "O=C1c2ccccc2-c2c1c1ccccc1c(=O)n2C[C@H](O)[C@H](O)[C@H](O)CO", "target or system": "60 cancer cell lines", "test": "cell growth", "setting": "10 µM", "measurement": "mean growth", "result": "17.3%"}
{"Structure (SMILES)": "CC(C)C[C@@H]1NC(=O)[C@H](C(C)C)NC(=O)[C@H](CCCNC(=N)N)NC(=O)[C@@H](N)CSSC[C@@H](C(=O)O)NC(=O)[C@H](CO)NC(=O)CNC(=O)[C@H](CO)NC(=O)[C@H](CCCNC(=N)N)NC1=O", "target or system": "J774.A1", "setting": "concentration not given", "measurement": "cell binding", "result": "binds"}
{"Structure (SMILES)": "CCC1=C(C)C2=C(c3ccc([P+](C)(C4CCCCC4)C4CCCCC4)cc3)c3c(C)c(CC)c(C)n3[B-](C)(C)[N+]2=C1C", "target or system": "H9c2", "test": "mitochondrial depolarisation response", "measurement": "fluorescence intensity decrease", "result": "> 70%"}
{"Structure (SMILES)": "C[C@H](Nc1c(-c2c(F)cc(OCCCN)cc2F)c(Cl)nc2ncnn12)C(F)(F)F", "target or system": "HEK293", "setting": "1 µM, 4 h, unit not given", "scale": "baseline: vehicle (DMSO)", "measurement": "total α-tubulin level", "result": "0.42 ± 0.02"}
{"Structure (SMILES)": "CCC(=O)O[C@@H]1[C@@H](OC(C)=O)C2=C(C(=O)C(O)=C(C(C)C)C2=O)[C@@]2(C)CCCC(C)(C)[C@H]12", "target or system": "MOLT-3", "measurement": "GI50", "result": "5000 to 10000 nM"}
{"Structure (SMILES)": "O=C(Nc1cccc(Br)c1)Nc1cc(Oc2ccc3nc(NC(=O)C4CC4)sc3c2)ccc1F", "target or system": "HT-29", "test": "necroptosis", "measurement": "EC50", "result": "440 nM"}
{"Structure (SMILES)": "Cc1nc(Nc2ncc(C(=O)Nc3c(C)cccc3Cl)s2)cc(N2CCN(CCCCCCOCCOCCOCCCCCCOCCCCCC(=O)Nc3cccc4c3C(=O)N(C3CCC(=O)NC3=O)C4=O)CC2)n1 (stereo not shown)", "target or system": "K562", "measurement": "EC50", "result": "4.4 nM"}
{"Structure (SMILES)": "Cc1ccc(C(C)C)cc1.O=C(N=P(c1ccccc1)(c1ccccc1)c1ccccc1)c1ccccn1.[Cl-].[Cl][Ru+]", "target or system": "Jurkat", "test": "measured: phosphatidylserine exposure", "setting": "concentration not given", "measurement": "apoptotic cells", "result": "80%"}
{"Structure (SMILES)": "CN(CCOCCOCCOCCNc1cccc2c1C(=O)N(C1CCC(=O)NC1=O)C2=O)CC[C@H](CSc1ccccc1)Nc1ccc(S(=O)(=O)NC(=O)c2ccc(N3CCN(CC4=C(c5ccc(Cl)cc5)CCC(C)(C)C4)CC3)cc2)cc1S(=O)(=O)C(F)(F)F (stereo partly shown)", "target or system": "MOLT-4 cells, human platelets", "scale": "baseline: MOLT-4 over platelets", "measurement": "selectivity ratio", "result": "> 100 fold"}
{"Structure (SMILES)": "O=[N+]([O-])c1cccc(-c2nn(-c3ccccc3)cc2-c2cc(-c3ccccn3)nc3ncnn23)c1", "target or system": "MCF7", "test": "VEGFR2 expression", "setting": "concentration not given", "measurement": "inhibition", "result": "63%"}
{"Structure (SMILES)": "CCn1cc(-c2cc(Cn3ccnc3)cc3c2CCN([C@H](c2cc(OC)ccn2)C2CC2)C3=O)c(C(F)(F)F)n1", "target or system": "MV4-11", "test": "cell proliferation", "measurement": "GI50", "result": "19 ± 5.2 nM"}
{"Structure (SMILES)": "Cc1ccc2c(n1)c1nc(C)ccc1c1nc3cc4ccccc4cc3nc21.[Ru+2].c1ccc(-c2cccc(-c3ccccn3)n2)nc1.c1ccncc1", "target or system": "MDA-MB-231", "test": "cell viability", "setting": "light irradiation", "measurement": "EC50", "result": "4600 nM"}
{"Structure (SMILES)": "Clc1ccccc1C(c1ccccc1)(c1ccccc1)n1cc[n+]([Pd-2]([Cl])([Cl])[n+]2ccn(C(c3ccccc3)(c3ccccc3)c3ccccc3Cl)c2)c1", "target or system": "human tumour cell line panel", "setting": "concentration not given", "measurement": "antiproliferative activity", "result": "inactive"}
{"note": "Some of these lines once more:"}
{"Structure (SMILES)": "CCC(=O)O[C@@H]1[C@@H](OC(C)=O)C2=C(C(=O)C(O)=C(C(C)C)C2=O)[C@@]2(C)CCCC(C)(C)[C@H]12", "target or system": "MOLT-3", "measurement": "GI50", "result": "5000 to 10000 nM"}
{"Structure (SMILES)": "O=C(Nc1cccc(Br)c1)Nc1cc(Oc2ccc3nc(NC(=O)C4CC4)sc3c2)ccc1F", "target or system": "HT-29", "test": "necroptosis", "measurement": "EC50", "result": "440 nM"}
{"Structure (SMILES)": "Cc1nc(Nc2ncc(C(=O)Nc3c(C)cccc3Cl)s2)cc(N2CCN(CCCCCCOCCOCCOCCCCCCOCCCCCC(=O)Nc3cccc4c3C(=O)N(C3CCC(=O)NC3=O)C4=O)CC2)n1 (stereo not shown)", "target or system": "K562", "measurement": "EC50", "result": "4.4 nM"}
{"Structure (SMILES)": "Cc1ccc(C(C)C)cc1.O=C(N=P(c1ccccc1)(c1ccccc1)c1ccccc1)c1ccccn1.[Cl-].[Cl][Ru+]", "target or system": "Jurkat", "test": "measured: phosphatidylserine exposure", "setting": "concentration not given", "measurement": "apoptotic cells", "result": "80%"}
